# Published values of several laboratories.
# Every numbered part comes from another study and shows a few of its results, in no order.

# Set 1
# Target: TAR DNA-binding protein 43, full length, His tag (TARDBP, Homo sapiens, UniProt Q13148, residues 1-414)
# Technique: RNA Bind-n-Seq
# Form: RNA
# Matrix: in vitro
# Concentration: 20 nM
# Notes: 6-mer, flanks averaged, single round
# Together with: 150 mM LiCl
# Relative to: input library
# Direction: higher = stronger binding
Oligonucleotide,6-mer enrichment (R)
UUGUUA,1.17
AUAGGC,0.91
GACGAA,0.866
ACCGAG,0.902
ACGCAU,0.869
CUCUCG,0.832
CGACGA,0.794
AAGCUC,0.823
GGUGAA,1.17
AUCAAA,0.805
UAGGAA,0.897
UGCAUC,0.876
UCAAUC,0.828
CAAAGA,0.808
ACUAGA,0.817
GUGAGG,1.45
GAACUU,0.921
GCAUAU,0.933
CCGGGC,0.949
CUGCAA,0.857
UUGCAA,0.919
AGAUAU,0.874
AAUGUU,1.11
UAAUCC,0.873
ACGAGU,0.928

# Set 2
# Target: Histone acetyltransferase KAT6A, both winged helices, GST fusion (KAT6A, Homo sapiens, UniProt Q92794, residues 1-181)
# Technique: protein binding microarray
# Form: double-stranded DNA, one strand shown
# Matrix: in vitro
# Concentration: not given
# Notes: 8-mer, flanks averaged, mean of 2 arrays, mostly near background
# Relative to: not given
# Direction: higher = stronger binding
# Target sequence (chain): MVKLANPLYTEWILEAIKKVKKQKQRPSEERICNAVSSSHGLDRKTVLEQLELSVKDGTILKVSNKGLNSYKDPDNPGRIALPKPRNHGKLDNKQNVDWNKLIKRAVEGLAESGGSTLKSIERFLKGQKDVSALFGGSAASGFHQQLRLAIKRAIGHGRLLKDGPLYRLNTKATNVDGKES
Oligonucleotide,E-score
ACGCCTTC,-0.00286
CGACTTTA,0.0263
ATGGGAGA,-0.2
AAAGGGAT,-0.191
AACCTGGC,0.00744
AGTCAGGG,-0.23
ACGGTTAG,0.112
ATGTCAAG,-0.0564
CCAGCGGA,0.163
ATGGATTA,-0.135
AGGGGATC,-0.151
ATGGTATA,-0.151
ATGGATAC,-0.155
CATGCAGA,0.0088
GTCGTTCA,0.0162
AATGTGAC,0.03
ATAGACCA,-0.121
CACGTGGC,-0.0152
CGTTTACC,0.116
AGCTCAAG,-0.174
GACAGAGC,-0.0788
CCGTAAGC,0.248
AGGGAGAT,-0.237
TATTCAGA,-0.0305

# Set 3
# Target: RING finger protein unkempt homolog, zinc fingers 1-6, GST-SBP tag (UNK, Homo sapiens, UniProt Q9C0B0, residues 30-357)
# Sequence of UniProt Q9C0B0 (30-357, looked up): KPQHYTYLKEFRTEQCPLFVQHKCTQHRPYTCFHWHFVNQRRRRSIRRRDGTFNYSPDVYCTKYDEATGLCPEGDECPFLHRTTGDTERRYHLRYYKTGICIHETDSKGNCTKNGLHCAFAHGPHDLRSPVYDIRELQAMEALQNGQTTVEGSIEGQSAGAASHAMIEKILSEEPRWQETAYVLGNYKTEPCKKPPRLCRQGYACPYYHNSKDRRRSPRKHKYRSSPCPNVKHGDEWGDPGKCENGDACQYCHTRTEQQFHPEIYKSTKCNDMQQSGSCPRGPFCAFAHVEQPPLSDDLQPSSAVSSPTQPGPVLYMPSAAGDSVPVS
# Technique: RNA Bind-n-Seq
# Form: RNA
# Matrix: in vitro
# Concentration: not given
# Notes: RNA with constant flanks, human and mouse sites, ends assumed
# Relative to: input RNA pool
# Direction: higher = stronger binding
Oligonucleotide,bound/input enrichment
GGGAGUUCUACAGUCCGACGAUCGGGUUGCUUCCCAUCCCAACCUCCAGUCCUCUGACGGCAGUGAGUAGUCUUGGUGUUUCACUUAGCAGUUUGGGAGCUAUCCCAGCAGCAGCGCUGGACCCAAAUAUUACAACACUUGGACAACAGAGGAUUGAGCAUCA,0.116 ratio
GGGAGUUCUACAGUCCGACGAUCAUGGAACAUUUUGAUGCAUCACUUAGUACCUAUUUCAAGGCAUUGCUAGGCCCUCGAGAUACUAGAGUAAAAGGAUGGUUUCUUCUGGACAAUUAUAUACCCACAUUUAUCUGCUCUGUCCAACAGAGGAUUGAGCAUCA,1.99 ratio
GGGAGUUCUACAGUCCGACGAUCUAAGAUCACCUCGCGUCCCGAACCGCCGCCUCCAACUCUUGAGAACUCAAACGCCCGACAAGAAACUUGCACGAUCGCGCCCGCGGCCACCAACCCGAGCCAGAGCACCCACGGCCUGCACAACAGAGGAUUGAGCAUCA,0.248 ratio
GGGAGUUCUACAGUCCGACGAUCGUGUCACUGUUGUCAUCUGAAGAAGAACCAUUAGAGUCAACAGUCUGGGAUGAUUUGGAAGCUAGGUGAUCUGUGUUUUUUUCUUAAAAUAACAUCGUAGCACAGAGGAACUCUACCAGCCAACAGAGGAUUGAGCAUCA,0.2 ratio
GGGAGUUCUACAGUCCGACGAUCGAUGAGCUCGCCCGGCUGCCCUACCUACGGACCUGGUUCCGCACCCGCAGCGCCAUCAUCCUGCACCUCAGCAACGGCAGCGUGCAGAUCAACUUCUUCCAGGAUCACACCAAGCUCAUCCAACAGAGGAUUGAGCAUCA,0.103 ratio
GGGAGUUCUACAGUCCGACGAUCCCCAGUGCGGCAGCCCCAACGGGGGCUGGGGGCGUGGCCCCAGGCUCAGGGAACAACUCAGGGGGACCCAGCCUCCUGGUGCCACUGCCUGUGAAUCCUCCCAGCUCCCCAACGCCCAGCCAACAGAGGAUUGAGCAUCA,0.132 ratio
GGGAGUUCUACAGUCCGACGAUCCAAACCCCAAGUGGUGAGACAGCUUUCAAAAACAUGACGAUUCCUUAUGGGUGGGCCAAACGGCCAAUGCUUCAGCGGAUAGGUGGCUUGCAUCCUGACAUUCCAGUUUCAGUGAUCUUUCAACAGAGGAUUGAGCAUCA,0.171 ratio
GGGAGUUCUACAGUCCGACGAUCUUUCCCGGAAACAGUACCCAGUACAACAUCCUAGAAGGACUGGAGAAACUCAAACAUCUAGAUUUCCUAAAGCAGCCACUGGCCACCCAAAAAGAUCUCACUGGCCAGGUGCCCACCCCCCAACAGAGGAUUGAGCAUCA,1.88 ratio
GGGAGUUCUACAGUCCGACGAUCAAAGAACUGCUAUCUAUGGAGAAAGCAAUUCUGUACUCAUUGUUGGACCACGAGGAUCAGGAAAGACCACAUUAUUAAAUCAUGCUUUGAAAGAACUCAUGGAAAUAGAAGUGAGUGAAACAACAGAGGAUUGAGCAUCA,0.406 ratio
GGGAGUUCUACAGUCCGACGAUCGUCUGUUAUGAAUUUGCUGUCCUUUUUAUUGUGUGUACCUGUACAGUUUUUCGGAGGCUGGUACUUCUACAUUCAGGCUUAUAAAGCACUGAAGCAUAAGACAGCAAAUAUGGACGUACUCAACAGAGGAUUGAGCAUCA,0.116 ratio
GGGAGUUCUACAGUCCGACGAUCUCAAAAUUCUUCUCUGCCUACAAAAGUCAUUUCCGGAAUGUCCAUAGUGAAGACUUUGAAAAUAGGAUUCUCCUUAACUGCCCUUACUGUACCUUCAAUGCAGAUAAAAAGACUUUGGAACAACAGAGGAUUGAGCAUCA,0.19 ratio

# Set 4
# Target: Prothrombin, mature alpha-thrombin (F2, Homo sapiens, UniProt P00734)
# Technique: aptamer microarray, sandwich
# Form: DNA with 2'F-ANA
# Matrix: in vitro
# Concentration: 200 nM
# Notes: whole 15-mer aptamer, many near background
# Together with: Cy3 exosite-II aptamer, 400 nM
# Direction: higher = stronger binding
# Oligonucleotide: GGTTGGTGTGGTTGG
Modification,mean fluorescence intensity [a.u.]
2'F-ANA at 3 6 8 9 11 12 14 15,493
2'F-ANA at 2 4 8 10 11 13 14,73.1
2'F-ANA at 3 4 5 7 8 9 10 11 13 15,52.5
2'F-ANA at 4 10 13 14 15,64.2
2'F-ANA at 2 4 5 6 9 13 15,56.7
2'F-ANA at 1 2 3 4 8 9 11 12,316
2'F-ANA at 1 3 5 6 9 14 15,48.9
2'F-ANA at 1 4 5 6 10 13 14,51.2
2'F-ANA at 2 3 5 6 7 8 9 10 11 12 14,47.7
2'F-ANA at 1 2 5 9 13 14 15,48.7
2'F-ANA at 2 3 4 5 6 8 10 11 13,54.4
2'F-ANA at 2 3 6 7 10 11 12 14,288
2'F-ANA at 6 7 13 14 15,232
2'F-ANA at 3 4 5 6 7 8 10 12 14,51.3
2'F-ANA at 1 2 3 5 6,139
2'F-ANA at 1 2 4 7 8 9 12 13,210
2'F-ANA at 1 3 4 5 6 8 10 11 12 13 14,53
2'F-ANA at 1 2 5 6 7 9 10 13 14,50.2
2'F-ANA at 1 2 3 8 10 12 13,85.9
2'F-ANA at 2 3 4 7 10 11 12,370
2'F-ANA at 1 7 8 9,247
2'F-ANA at 1 4 6 7 10 12 14,48.2
2'F-ANA at 3 5 7 11 13,96.5

# Set 5
# Target: RNA binding protein fox-1 homolog 2, RRM domain, GST-SBP tag (RBFOX2, Homo sapiens, UniProt O43251-10, residues 100-194)
# Technique: RNA Bind-n-Seq
# Form: RNA
# Matrix: in vitro
# Concentration: 365 nM
# Notes: natural RNA segment, single round, ends assumed
# Relative to: no-protein control
# Direction: higher = stronger binding
# Target sequence (chain): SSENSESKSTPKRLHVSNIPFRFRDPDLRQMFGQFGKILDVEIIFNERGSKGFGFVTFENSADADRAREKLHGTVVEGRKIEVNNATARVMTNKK
Oligonucleotide,RBNS enrichment (R)
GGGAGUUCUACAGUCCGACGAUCACUUAAUGUGUUCCUGAAGAGGUUGUGCUUCCUGACAAAUGCUGUCAGGUCAUUAUUUGCUGUAUCAAAGUUCCAGUGGCUUCAGAAAUCAUAGCAUCCCAUGGUUUUGUUGGAAUUCUCGGGUGCCAA,0.417
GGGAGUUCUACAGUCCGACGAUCACACAAACCUCACCCCUGUCACAUCAGUGACUCUGACCACUUUUGUUCUCAAACUCUCUCACUAUUAUCUGUGGUUGCCGUUUCUUCCCAAGGCCAGCCUGGACGAAUUUUGGAAUUCUCGGGUGCCAA,0.497
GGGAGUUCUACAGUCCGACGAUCACGCCUAUUUUCACCAUUCUCAGGCAAAUACUCCAUGGCUGUAGUUUGACGGACUGUUCCAAUCUGCCUUAUGAAAUCCAACAAGAAUGUUAGUGGCAUCUCUGUGGUCCUGGAAUUCUCGGGUGCCAA,1.46
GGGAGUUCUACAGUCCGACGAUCGGGGUCAUUCUACCAACAAUCAGUCCCUGAGGGUUCACAACACCCUGGAACCAAACAUCAGAAUGCACACUAUUCUCCUAACAGUGAGCAUGGGGGGCAGGAGCCAGGGAUGGAAUUCUCGGGUGCCAA,0.412
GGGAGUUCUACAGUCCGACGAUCCCCCAACCCCUCGCCCUGCCAUCUUCCCCUCAAGCCUGCUAAGUUAUCCCAGGCCUGUGCGUGGUGGAAAAAGCCAGCCUUGGCCCUGCAGCCUCCACCUCGCCGCUGGGUGGAAUUCUCGGGUGCCAA,0.994
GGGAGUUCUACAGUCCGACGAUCGCACAGGUGCAGGCAAACCCUUCCAGCUGGGUUAAUUGCCGUUUAUGGUUUACUCACUUAGGGAAAGGGCUUAGGUGUUAGGCUGUGGGCUGCUUCUCCCUAACCAUCCAUGGAAUUCUCGGGUGCCAA,0.515
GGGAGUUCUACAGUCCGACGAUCAGGACAGCCUGUGGCGGUGCCUGGGUGGGGCUGCUCCUCCAGGGCCACGUGCCAGGCCCGGGGCUGGCGGCUACUCAGCAGCCCUCCUCACCCCGUCUGGGGUUCAGCCCUGGAAUUCUCGGGUGCCAA,0.368
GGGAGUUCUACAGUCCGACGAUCGGGCAGCGAGAGGACAGGCUAUGGCUUGCUCCUGGACCUAUACUCCCUUAGCCCCAGUCCCACAGAUCAGGUGGAGACUGGAGUGACAGAGGGCGACUGUACCAAGGCCAUGGAAUUCUCGGGUGCCAA,0.222
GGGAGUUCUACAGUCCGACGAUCUGCCACAGAAGGCAGAGGGUAGUUGGUGGCCUUUUCAUCCACUUAACCCUGACACAGGCAGCUGCUGACCGGCCGCCUGUGUCCUGUGUCCGUCCAUUCUGGGCCACAGCUGGAAUUCUCGGGUGCCAA,0.257
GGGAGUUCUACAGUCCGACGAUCGCCCUGGAGGCUCCCAUGUGCUUGAGGAAGGCUGGUGAGCCCGGCUCAGGACCCUCUUCCCUCAGGGGCUGCACCCUCCUCUCACUCCCUUCCAUGCCGGAACCCAGGCCUGGAAUUCUCGGGUGCCAA,0.49
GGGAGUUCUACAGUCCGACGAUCAAGAAAACAGUCACUGCAUUUAUCUCUGUGAGUCUUUGUUCAGAGAGGCCUUUAGUCUAGAUUCUGCCAGCUGUGCCACACUCUGCACUAAAGAUAUCAGAGCUCUUAGUUGGAAUUCUCGGGUGCCAA,0.578
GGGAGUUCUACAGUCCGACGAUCUCCCAAAGUGCUGCCAUUACAGGCGUGAGCCACUAGGCCUGACCUCCCCUUCCCCUUUCCUGCCCCAAGGCAGAUCCACAUCACCGAAGCUCCCUAGAGGGGCAAAAGAUUGGAAUUCUCGGGUGCCAA,0.318
